Results gathered from unrelated publications.
Every numbered part comes from another study and shows a few of its results, in no order.

Block 1
Target: Prothrombin, mature alpha-thrombin (F2, Homo sapiens, UniProt P00734)
Technique: aptamer microarray, sandwich
Form: DNA with 2'F-ANA
Sample: in vitro
Tested at: 200 nM
Notes: whole 15-mer aptamer, many near background
With: Cy3 exosite-II aptamer, 400 nM
Direction: higher = stronger binding
Strand: GGTTGGTGTGGTTGG
Modification | mean fluorescence intensity
2'F-ANA at 6 9 12 14 | 211 a.u.
2'F-ANA at 3 5 7 8 9 11 13 | 110 a.u.
2'F-ANA at 3 5 6 7 9 11 12 14 15 | 55.4 a.u.
2'F-ANA at 1 2 3 8 10 11 | 65.9 a.u.
2'F-ANA at 1 3 5 7 10 11 12 13 14 | 46 a.u.
2'F-ANA at 1 2 4 8 9 12 13 15 | 201 a.u.
2'F-ANA at 3 5 8 11 12 14 15 | 64.4 a.u.
2'F-ANA at 2 7 8 10 12 13 | 183 a.u.
2'F-ANA at 1 2 6 7 8 9 12 13 15 | 245 a.u.
2'F-ANA at 2 6 7 8 9 10 11 12 14 15 | 102 a.u.
2'F-ANA at 1 2 4 5 10 12 13 | 46.1 a.u.
2'F-ANA at 3 4 5 7 11 14 | 63.1 a.u.
2'F-ANA at 1 2 3 6 9 12 14 | 77.6 a.u.
2'F-ANA at 2 4 5 6 7 13 15 | 50.8 a.u.
2'F-ANA at 2 4 6 9 11 14 15 | 75.3 a.u.
2'F-ANA at 2 5 7 8 9 11 12 15 | 157 a.u.
2'F-ANA at 1 2 4 5 6 10 | 46.9 a.u.
2'F-ANA at 2 4 8 10 12 15 | 134 a.u.
2'F-ANA at 2 3 5 6 7 8 9 12 13 14 15 | 57.6 a.u.
2'F-ANA at 1 4 5 6 7 10 11 | 64.5 a.u.
2'F-ANA at 2 4 6 7 10 11 | 74.7 a.u.
2'F-ANA at 1 4 6 11 13 | 81.8 a.u.
2'F-ANA at 1 3 6 10 13 15 | 74.3 a.u.
2'F-ANA at 1 6 12 13 15 | 325 a.u.
2'F-ANA at 1 2 4 8 9 10 12 13 14 | 51 a.u.

Block 2
Target: Sal-like protein 4, full length isoform A (SALL4, Homo sapiens, UniProt Q9UJQ4, residues 1-1053)
UniProt Q9UJQ4, sequence (whole entry, looked up): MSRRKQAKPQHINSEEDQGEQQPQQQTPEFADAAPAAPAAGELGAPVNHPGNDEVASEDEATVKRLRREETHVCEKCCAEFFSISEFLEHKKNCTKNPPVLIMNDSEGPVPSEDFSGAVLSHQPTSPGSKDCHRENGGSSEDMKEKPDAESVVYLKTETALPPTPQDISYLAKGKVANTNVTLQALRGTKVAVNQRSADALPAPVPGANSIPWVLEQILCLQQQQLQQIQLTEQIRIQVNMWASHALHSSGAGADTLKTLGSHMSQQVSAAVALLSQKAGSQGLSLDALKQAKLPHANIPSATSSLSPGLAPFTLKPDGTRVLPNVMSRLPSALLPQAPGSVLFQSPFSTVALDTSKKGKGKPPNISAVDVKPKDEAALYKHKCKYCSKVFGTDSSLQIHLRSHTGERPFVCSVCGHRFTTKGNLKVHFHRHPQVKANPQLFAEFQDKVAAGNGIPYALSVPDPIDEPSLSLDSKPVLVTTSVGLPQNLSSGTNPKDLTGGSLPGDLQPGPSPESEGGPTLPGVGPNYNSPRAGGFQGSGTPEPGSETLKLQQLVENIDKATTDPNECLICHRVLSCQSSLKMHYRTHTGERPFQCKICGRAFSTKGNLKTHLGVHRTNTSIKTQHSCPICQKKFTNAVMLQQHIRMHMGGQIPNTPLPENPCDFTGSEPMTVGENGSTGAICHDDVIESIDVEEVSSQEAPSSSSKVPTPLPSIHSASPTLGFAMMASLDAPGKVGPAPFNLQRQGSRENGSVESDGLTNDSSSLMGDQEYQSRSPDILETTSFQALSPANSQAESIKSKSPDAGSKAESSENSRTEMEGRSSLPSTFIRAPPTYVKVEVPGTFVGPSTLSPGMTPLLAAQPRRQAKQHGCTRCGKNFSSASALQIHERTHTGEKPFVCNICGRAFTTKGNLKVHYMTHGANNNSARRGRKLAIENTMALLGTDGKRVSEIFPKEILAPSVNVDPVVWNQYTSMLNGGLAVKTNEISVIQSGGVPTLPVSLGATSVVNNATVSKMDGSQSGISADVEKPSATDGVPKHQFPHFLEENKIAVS
Technique: universal PBM
Form: double-stranded DNA, one strand shown
Sample: in vitro
Tested at: 600 nM
Notes: 8-mer, flanks averaged, mean of replicates
Direction: higher = stronger binding
Strand | E-score
CTAATGTA | 0.21
ATCTGTAC | 0.227
ACGTACAT | 0.138
AGTAGGAA | 0.0838
GCCCATCC | -0.175
CTATGTGA | 0.0794
GATTGCGA | -0.0289
AAAACCTA | 0.185
CGGTGAAG | -0.228
TAGCATCA | 0.128
GCGTAAAC | -0.0861
AGCCGAGG | -0.135
GATCGTGC | -0.0611
ACAAGGAG | 0.116
GCCACACC | -0.142
ATACAACC | 0.0943
CTGAGAAG | -0.169
CGCAAAAA | 0.181
GGCGTCCA | -0.235

Block 3
Target: Transcription factor Sp1 (SP1, Homo sapiens, UniProt P08047, residues 1-785, full length assumed)
UniProt P08047, sequence (whole entry, looked up): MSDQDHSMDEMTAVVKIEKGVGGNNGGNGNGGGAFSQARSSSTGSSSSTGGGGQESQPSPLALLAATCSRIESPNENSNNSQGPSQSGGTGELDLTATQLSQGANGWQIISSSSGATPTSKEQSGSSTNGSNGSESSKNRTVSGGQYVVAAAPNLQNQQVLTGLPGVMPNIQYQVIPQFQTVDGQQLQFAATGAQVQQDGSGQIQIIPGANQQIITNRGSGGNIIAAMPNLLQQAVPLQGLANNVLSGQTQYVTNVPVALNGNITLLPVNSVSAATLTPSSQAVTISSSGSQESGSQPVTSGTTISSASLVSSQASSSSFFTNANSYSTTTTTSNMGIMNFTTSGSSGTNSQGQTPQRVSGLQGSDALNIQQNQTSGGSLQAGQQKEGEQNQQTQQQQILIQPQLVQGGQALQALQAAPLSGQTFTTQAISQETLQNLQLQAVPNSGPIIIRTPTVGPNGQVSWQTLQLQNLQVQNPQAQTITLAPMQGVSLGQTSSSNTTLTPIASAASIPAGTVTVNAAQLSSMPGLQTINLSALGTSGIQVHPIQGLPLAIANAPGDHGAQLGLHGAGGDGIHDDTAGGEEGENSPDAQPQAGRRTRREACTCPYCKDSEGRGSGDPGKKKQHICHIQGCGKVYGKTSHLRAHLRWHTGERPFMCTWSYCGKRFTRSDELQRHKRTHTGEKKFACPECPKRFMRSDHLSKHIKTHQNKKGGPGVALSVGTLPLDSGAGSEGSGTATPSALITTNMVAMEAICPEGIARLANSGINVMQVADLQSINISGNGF
Technique: protein-binding microarray
Form: double-stranded DNA, one strand shown
Sample: in vitro
Tested at: not given
Notes: k-mer, scored over probes, only values ≥0.25
Direction: higher = stronger binding
Strand | E-score
AAGGGGGC | 0.318
TTATTGAA | 0.286
AACCCCTC | 0.328
CTATCTCC | 0.279
GGTAAACA | 0.258
CTATGCAC | 0.252
CTCCCACC | 0.368
GCCCCGCC | 0.493
AACCCCTA | 0.275
AGCCCCGC | 0.26
GTTATATA | 0.315
CGCCGCCC | 0.351
ACAAACAC | 0.277
ATGAGGGG | 0.323
GCCTCCCC | 0.446
CATGGGGA | 0.316
ACTAACAT | 0.265
CAACCCAC | 0.253
ACCCACTG | 0.294
CTCCGCCC | 0.458
TTATATAA | 0.276
CCCAATAA | 0.253

Block 4
Target: Histone acetyltransferase KAT6A, winged helix 1, GST fusion (KAT6A, Homo sapiens, UniProt Q92794, residues 1-85)
Technique: protein binding microarray
Form: double-stranded DNA, one strand shown
Sample: in vitro
Tested at: not given
Notes: 8-mer, flanks averaged, mean of 2 arrays, mostly near background
Relative to: not given
Direction: higher = stronger binding
Target sequence (chain): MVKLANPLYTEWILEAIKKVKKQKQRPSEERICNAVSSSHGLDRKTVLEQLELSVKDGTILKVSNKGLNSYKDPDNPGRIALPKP
Strand | E-score
CCCCGAAC | 0.128
CCCGACGA | 0.0906
CATCTTAA | -0.28
GATGAACC | -0.04
GCGCCAGA | 0.192
CAACACGA | -0.212
TGTTGAAA | -0.0445
AAGCACTG | -0.204
GGTACCAA | -0.0293
ACCGGTTC | 0.111
AAACGCAT | 0.0953
AGAGGGTA | -0.149
AATATAAA | -0.0163
TATAGCGA | -0.0241
CTCTGCCC | -0.179
CCATCGGA | 0.0588

Block 5
Target: RING finger protein unkempt homolog, zinc fingers 1-6, GST-SBP tag (UNK, Homo sapiens, UniProt Q9C0B0, residues 30-357)
Technique: RNA Bind-n-Seq
Form: RNA
Sample: in vitro
Tested at: not given
Notes: RNA with constant flanks, human and mouse sites, ends assumed
Relative to: input RNA pool
Direction: higher = stronger binding
Shared flanks, not repeated: GGGAGUUCUACAGUCCGACGAUC … CAACAGAGGAUUGAGCAUCA
Target sequence (chain): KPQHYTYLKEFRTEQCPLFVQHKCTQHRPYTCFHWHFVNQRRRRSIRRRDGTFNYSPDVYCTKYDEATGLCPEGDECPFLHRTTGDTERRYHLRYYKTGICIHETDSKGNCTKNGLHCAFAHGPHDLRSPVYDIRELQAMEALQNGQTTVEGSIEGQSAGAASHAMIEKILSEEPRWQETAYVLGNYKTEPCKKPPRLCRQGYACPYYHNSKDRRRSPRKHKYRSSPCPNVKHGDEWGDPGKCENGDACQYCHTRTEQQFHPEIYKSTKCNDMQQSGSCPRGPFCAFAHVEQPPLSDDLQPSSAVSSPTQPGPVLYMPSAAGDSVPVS
Strand | bound/input enrichment
UUAAAAUUACUGAAGUUAGAGAGAAUUAAAGACUAUCUUCUCAUGGAGGAAGAAUUCAUUAGAAAUCAGGAACAAAUGAAACCAUUAGAAGAAAAGCAAGAGGAGGAAAGAUCAAAAGUG | 2.14 ratio
UCAGACAUCUACGUGUGCAUGAUCUCCUAUGCACACAACGUGGCGGCCCAGGGCAAGUACAUAGCUAUUGCCAGCACUACUGUGGAGACCACGGACCCUGAAAAGGAGGUGGAGCCGGCU | 0.0869 ratio
GAUACUGGCAAACUGACCGGUGGAUCAUUUACCAUGAAAUACCAUGAUAUGCCUGACGUCAUAGAUUUUCUAGUCUUGAGACAACAAUUUGAUGAUGCAAAGUAUAGACGAUGGAAUAUA | 0.761 ratio
GAGGACCCUUCUUCUCCACAUGCAAGCCCCACACACUCACCCCGGGAAAACGGAAUUGACAAAAACCGUCUGCUGAAGAAAGAUGCUUCAGGUAGCCCGGCAUCCACAGCCUCCUCUGGA | 0.216 ratio
UGCUGCUCAGGCUGAGAGCUCAGACAAAACAGCAGCUCUUAGAAUAUAAGUCCAUGAUCGACACAAAUGAAGAAAAAACUCCAGAACAGAUUAUGCAAGAAAAACAGAUCGAAGUUAAAA | 0.817 ratio
ACAGCCCCGUGGGUGUGUGGGAGGCCGGGCGCUCUGGGGUCUGUCUGUCAGUGCAAUCGUUUAGUGUUUUUUCAGUGGGGCGGGGCGGGAAGCGGGUGGGACCGGGCAGCCAGUUCUCAA | 19 ratio
GGCCAGGAGCGAUUUCACACCAUCACAACCUCCUACUACAGAGGCGCAAUGGGUAUCAUGCUAGUAUAUGACAUCACCAAUGGUAAAAGUUUUGAAAACAUCAGCAAAUGGCUUAGAAAC | 0.398 ratio
CAGAGGACUAUCCAACCUCCUAGGAAUAGGUGAAGGGAAGUGACGGACUGUAACUUGGAAGUCAGAAAUGGAAGAAUACAGUUGUCUAAGCACCAGGUCUUCACGACUCACAGCUGGAAG | 0.376 ratio

Repeated from above (block 1):
Modification | mean fluorescence intensity
2'F-ANA at 3 5 8 11 12 14 15 | 64.4 a.u.
2'F-ANA at 2 7 8 10 12 13 | 183 a.u.
2'F-ANA at 1 2 3 6 9 12 14 | 77.6 a.u.
2'F-ANA at 2 3 5 6 7 8 9 12 13 14 15 | 57.6 a.u.
2'F-ANA at 3 5 7 8 9 11 13 | 110 a.u.
2'F-ANA at 1 2 4 8 9 10 12 13 14 | 51 a.u.
2'F-ANA at 1 4 5 6 7 10 11 | 64.5 a.u.
2'F-ANA at 1 6 12 13 15 | 325 a.u.
2'F-ANA at 2 5 7 8 9 11 12 15 | 157 a.u.
2'F-ANA at 2 6 7 8 9 10 11 12 14 15 | 102 a.u.
